Measurements gathered from unrelated publications.
Lines come from different studies, so protocols differ. Values joined by “and” are separate records of one study, mostly repeats; a detail may differ. ± marks the error that the study gave.
Urease: Urease (Canavalia ensiformis, UniProt P07374)
UniProt P07374, sequence (whole entry, looked up): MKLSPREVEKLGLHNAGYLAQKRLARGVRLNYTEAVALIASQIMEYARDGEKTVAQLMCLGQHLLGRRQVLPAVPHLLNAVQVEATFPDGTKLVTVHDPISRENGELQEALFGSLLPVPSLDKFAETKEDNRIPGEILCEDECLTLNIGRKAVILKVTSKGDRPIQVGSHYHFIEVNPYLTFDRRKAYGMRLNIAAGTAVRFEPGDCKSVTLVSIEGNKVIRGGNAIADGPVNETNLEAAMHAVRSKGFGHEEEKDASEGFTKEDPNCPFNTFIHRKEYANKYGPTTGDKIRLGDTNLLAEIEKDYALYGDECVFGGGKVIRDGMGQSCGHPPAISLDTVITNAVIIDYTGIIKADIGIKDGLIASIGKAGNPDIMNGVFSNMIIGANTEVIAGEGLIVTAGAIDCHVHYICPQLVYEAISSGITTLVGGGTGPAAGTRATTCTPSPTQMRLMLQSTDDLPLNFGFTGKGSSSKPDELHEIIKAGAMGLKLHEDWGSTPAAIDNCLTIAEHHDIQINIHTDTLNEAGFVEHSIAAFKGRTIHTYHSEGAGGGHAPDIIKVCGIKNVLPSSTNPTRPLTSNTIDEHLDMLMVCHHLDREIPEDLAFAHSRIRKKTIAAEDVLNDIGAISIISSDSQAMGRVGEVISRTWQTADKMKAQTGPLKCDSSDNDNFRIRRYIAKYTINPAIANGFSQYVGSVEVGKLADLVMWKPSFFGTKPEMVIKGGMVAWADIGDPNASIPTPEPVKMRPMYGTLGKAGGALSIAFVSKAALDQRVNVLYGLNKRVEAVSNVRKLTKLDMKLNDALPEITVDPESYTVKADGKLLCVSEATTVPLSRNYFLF
Genome polyprotein protease: Genome polyprotein, protease (Enterovirus A71, UniProt Q66478)
UniProt Q66478, sequence (whole entry, looked up): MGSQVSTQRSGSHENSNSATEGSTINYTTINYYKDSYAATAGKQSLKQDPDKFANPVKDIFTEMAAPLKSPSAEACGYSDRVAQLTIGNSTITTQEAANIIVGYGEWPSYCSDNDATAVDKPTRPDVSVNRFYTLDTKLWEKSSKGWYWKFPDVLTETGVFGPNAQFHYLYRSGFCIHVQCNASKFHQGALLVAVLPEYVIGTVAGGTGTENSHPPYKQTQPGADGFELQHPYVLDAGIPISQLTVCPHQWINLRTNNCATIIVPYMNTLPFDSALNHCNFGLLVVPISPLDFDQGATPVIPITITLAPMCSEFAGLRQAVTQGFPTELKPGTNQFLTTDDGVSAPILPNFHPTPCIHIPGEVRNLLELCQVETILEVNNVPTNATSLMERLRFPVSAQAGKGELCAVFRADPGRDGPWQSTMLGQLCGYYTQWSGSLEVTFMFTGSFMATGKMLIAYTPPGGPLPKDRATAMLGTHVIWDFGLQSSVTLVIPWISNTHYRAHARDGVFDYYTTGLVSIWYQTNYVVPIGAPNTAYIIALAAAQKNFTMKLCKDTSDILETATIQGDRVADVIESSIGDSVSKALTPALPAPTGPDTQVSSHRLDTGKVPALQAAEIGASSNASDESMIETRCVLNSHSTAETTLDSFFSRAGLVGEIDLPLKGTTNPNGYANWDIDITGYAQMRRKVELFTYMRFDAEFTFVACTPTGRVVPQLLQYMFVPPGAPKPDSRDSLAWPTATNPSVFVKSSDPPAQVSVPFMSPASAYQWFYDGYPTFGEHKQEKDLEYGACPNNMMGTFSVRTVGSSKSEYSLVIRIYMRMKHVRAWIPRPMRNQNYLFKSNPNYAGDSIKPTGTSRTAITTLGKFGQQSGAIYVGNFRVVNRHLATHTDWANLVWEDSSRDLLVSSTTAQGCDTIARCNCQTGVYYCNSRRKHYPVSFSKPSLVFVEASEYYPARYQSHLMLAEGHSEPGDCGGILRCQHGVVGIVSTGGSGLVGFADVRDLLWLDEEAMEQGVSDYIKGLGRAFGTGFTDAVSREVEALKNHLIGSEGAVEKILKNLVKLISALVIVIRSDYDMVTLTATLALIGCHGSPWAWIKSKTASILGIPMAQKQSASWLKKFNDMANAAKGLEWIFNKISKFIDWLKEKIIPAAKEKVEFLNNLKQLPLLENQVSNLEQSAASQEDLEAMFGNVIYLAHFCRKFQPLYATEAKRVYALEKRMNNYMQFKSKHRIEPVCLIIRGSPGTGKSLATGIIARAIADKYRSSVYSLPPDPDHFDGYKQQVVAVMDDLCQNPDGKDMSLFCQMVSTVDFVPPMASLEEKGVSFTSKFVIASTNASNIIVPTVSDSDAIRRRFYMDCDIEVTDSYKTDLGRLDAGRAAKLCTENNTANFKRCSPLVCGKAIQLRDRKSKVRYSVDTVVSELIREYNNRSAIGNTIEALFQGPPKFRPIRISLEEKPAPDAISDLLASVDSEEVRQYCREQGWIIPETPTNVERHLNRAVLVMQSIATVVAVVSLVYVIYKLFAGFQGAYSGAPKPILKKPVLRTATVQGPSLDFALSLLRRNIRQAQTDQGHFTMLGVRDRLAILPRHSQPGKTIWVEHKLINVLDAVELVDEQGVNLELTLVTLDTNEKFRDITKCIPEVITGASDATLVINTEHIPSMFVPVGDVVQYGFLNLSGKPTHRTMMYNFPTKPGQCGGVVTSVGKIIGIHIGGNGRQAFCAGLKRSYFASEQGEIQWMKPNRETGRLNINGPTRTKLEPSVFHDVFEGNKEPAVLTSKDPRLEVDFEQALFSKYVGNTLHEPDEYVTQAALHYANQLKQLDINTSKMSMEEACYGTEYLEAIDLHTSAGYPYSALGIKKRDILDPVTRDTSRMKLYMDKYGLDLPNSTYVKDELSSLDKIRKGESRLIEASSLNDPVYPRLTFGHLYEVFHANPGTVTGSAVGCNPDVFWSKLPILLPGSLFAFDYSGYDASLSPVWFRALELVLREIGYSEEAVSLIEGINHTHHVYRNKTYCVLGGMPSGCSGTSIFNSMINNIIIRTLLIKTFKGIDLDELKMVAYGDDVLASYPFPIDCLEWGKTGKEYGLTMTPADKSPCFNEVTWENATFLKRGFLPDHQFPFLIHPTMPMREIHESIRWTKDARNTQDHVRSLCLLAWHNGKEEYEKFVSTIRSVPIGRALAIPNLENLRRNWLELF
CYP2B6: Cytochrome P450 2B6 (CYP2B6, Homo sapiens, UniProt P20813)
UniProt P22001, sequence (whole entry, looked up): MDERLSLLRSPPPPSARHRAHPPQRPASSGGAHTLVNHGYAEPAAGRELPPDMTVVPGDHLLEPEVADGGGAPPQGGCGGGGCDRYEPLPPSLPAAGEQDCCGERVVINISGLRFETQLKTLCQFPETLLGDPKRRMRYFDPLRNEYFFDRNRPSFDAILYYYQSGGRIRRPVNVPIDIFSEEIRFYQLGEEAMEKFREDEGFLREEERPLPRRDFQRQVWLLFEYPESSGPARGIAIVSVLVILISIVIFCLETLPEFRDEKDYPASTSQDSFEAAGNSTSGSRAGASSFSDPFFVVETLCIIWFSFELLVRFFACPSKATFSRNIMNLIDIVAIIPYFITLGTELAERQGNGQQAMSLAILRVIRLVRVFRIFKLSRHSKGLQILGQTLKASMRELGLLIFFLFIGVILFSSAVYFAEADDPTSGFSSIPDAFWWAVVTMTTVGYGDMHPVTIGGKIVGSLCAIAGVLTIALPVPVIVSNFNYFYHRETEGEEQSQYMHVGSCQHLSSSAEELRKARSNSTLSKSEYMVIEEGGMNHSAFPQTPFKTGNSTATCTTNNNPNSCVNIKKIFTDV
UniProt P20813, sequence (whole entry, looked up): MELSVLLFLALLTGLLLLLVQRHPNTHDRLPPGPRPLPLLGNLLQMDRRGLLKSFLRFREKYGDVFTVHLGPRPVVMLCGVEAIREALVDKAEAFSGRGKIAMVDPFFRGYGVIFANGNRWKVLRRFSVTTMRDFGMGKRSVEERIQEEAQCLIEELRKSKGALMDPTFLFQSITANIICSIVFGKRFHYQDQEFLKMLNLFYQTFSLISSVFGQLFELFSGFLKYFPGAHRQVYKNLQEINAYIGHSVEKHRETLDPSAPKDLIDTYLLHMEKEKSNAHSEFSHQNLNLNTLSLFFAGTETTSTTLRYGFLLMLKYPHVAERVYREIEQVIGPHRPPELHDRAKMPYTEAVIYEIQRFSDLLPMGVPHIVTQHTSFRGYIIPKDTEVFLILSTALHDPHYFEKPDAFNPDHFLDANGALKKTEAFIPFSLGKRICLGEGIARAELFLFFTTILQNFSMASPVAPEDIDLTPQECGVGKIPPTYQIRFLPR
UniProt P09958, sequence (whole entry, looked up): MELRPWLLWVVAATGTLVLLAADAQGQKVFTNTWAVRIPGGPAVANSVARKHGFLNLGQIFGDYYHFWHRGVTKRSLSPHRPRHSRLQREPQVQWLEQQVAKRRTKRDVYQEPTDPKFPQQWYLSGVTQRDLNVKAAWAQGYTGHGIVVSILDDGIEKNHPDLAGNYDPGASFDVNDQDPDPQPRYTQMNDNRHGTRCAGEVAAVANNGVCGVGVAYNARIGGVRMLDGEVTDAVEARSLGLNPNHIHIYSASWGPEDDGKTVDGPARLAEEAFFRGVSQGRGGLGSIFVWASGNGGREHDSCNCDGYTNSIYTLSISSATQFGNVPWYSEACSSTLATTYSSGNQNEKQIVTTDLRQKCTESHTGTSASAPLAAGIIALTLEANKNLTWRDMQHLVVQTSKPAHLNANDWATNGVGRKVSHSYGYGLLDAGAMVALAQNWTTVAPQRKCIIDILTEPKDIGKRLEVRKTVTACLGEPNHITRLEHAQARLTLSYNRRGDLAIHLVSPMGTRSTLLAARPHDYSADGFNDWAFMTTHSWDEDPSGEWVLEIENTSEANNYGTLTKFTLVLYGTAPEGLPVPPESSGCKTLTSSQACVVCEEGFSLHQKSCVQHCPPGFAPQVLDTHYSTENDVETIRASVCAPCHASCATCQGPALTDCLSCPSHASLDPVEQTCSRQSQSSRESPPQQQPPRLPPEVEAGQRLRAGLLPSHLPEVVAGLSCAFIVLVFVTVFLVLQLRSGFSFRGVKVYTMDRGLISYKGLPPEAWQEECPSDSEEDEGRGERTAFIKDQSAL

`C=CC(=O)NC(CC(=C)C)C(=O)N1CC(C(=O)NC(Cc2ccco2)C(=O)NC)C(c2cccc(C(F)(F)F)c2)C1` (stereo not drawn) gave an IC50 of > 100 µM (Replicase polyprotein 1ab, main protease (rep, Human coronavirus NL63, UniProt P0C6X5); enzyme activity, inhibitor).
The IC50 of `CN1C(=O)C2(C3=C(Nc4[nH]c(=O)[nH]c(=O)c42)c2ccccc2C3=O)c2ccccc21` (stereo not drawn) is reported as 4.35 µM (Urease; enzyme activity, inhibitor, absorbance).
For `CC(C)C[C@H](N)C(=O)NCC(=O)N[C@H](C(=O)N[C@@H](C)C(=O)N1CCC[C@H]1C(=O)N[C@H](C(=O)N[C@@H](CCCCN)C(=O)N[C@@H](C)C(=O)N[C@@H](CCCCN)C(=O)N[C@@H](CCCNC(=N)N)C(=O)N[C@@H](CCCNC(=N)N)C(=O)N[C@H](C(=O)N[C@H](C(=O)N[C@@H](CCC(N)=O)C(=O)N[C@@H](CCCNC(=N)N)C(=O)N[C@@H](CCC(=O)O)C(=O)N[C@@H](CCCCN)C(=O)N[C@@H](CCCNC(=N)N)C(N)=O)C(C)C)C(C)C)[C@@H](C)O)C(C)C`, the IC50 was > 100 µM (Furin (FURIN, Homo sapiens, UniProt P09958); enzyme activity, inhibitor, HPLC; pH 7).
The IC50 of `CCCCCCCC/C=C\CCCCc1cc(=O)c2ccccc2n1C` is reported as 36 µM (UDP-N-acetylmuramoyl-L-alanyl-D-glutamate--2,6-diaminopimelate ligase (murE, Mycobacterium tuberculosis, UniProt P9WJL3); enzyme activity, inhibitor, absorbance).
With `CCCCn1c(NCc2ccc(N3N=C(c4ccccc4)CC3c3ccccc3)cc2)nc2ccccc21` (stereo not drawn) the IC50 was 3.3 µM (Genome polyprotein protease; enzyme activity, inhibitor).
`C=CC(=O)NC(CC(=C)C)C(=O)N1CC(C(=O)NC(CCSC)C(=O)NC)C(c2cccc(C(F)(F)F)c2)C1` (stereo not drawn) has an IC50 of > 100 µM (Replicase polyprotein 1ab, main protease (rep, Human coronavirus 229E, UniProt P0C6X1); enzyme activity, inhibitor).
With `COc1cc(CN2CCN(C)CC2)ccc1Nc1ncc2c(n1)N(C13CC4CC(CC(C4)C1)C3)C(=O)N(c1c(C)cccc1C)C2` the IC50 was > 0.5 µM (Serine/threonine-protein kinase SIK2 (SIK2, Homo sapiens, UniProt Q9H0K1); enzyme activity, inhibitor).
The IC50 of `C=CC(=O)NC(CC(=C)C)C(=O)N1CC(C(=O)NC(Cc2ccccc2)C(=O)NC)C(c2cccc(C(F)(F)F)c2)C1` (stereo not drawn) is reported as 1.8 µM (Replicase polyprotein 1ab, main protease (rep, Human coronavirus 229E, UniProt P0C6X1); enzyme activity, inhibitor).
With `N#Cc1cn([C@@H]2O[C@H](CSCC[C@H](N)C(=O)O)[C@@H](O)[C@H]2O)c2ncnc(N)c12` the IC50 was 1.1 ± 0.2 µM (Replicase polyprotein 1ab, nsp10-nsp16 complex (rep, Human coronavirus 229E, UniProt P0C6X1)).
`CCC[C@H](C(=O)c1ccccc1)N1CCCC1` has an IC50 of 2.5 µM (Sodium-dependent dopamine transporter (SLC6A3, Homo sapiens, UniProt Q01959); transporter uptake, inhibitor, radiometric).
For `O=C1C=CC(=O)c2cn(Cc3ccccc3)cc21`, the IC50 was > 50 µM (Genome polyprotein protease; enzyme activity, inhibitor).
`C=CCC(NC(=O)C1CN(C(=O)C(CC(=C)C)NC(=O)C=C)CC1c1cccc(C(F)(F)F)c1)C(=O)NC` (stereo not drawn) has an IC50 of > 100 µM (Replicase polyprotein 1ab, main protease (rep, Human coronavirus 229E, UniProt P0C6X1); enzyme activity, inhibitor).
The IC50 of `CCCCCc1cc(O)c2c(c1)OC(C)(C)C1CCC(C)=CC21` (single isomer, unassigned; (-)) is reported as 10 ± 6.4 µM (CYP2B6; inhibitor; HEK293 overexpressing CYP2B6, recombinant microsomes; pH 7.4, total concentration, together with: bupropion).
For `CSCC[C@@H]1NC(=O)[C@H](CCC(=O)O)NC(=O)[C@H](CC(C)C)NC(=O)[C@H](CC(C)C)NC(=O)[C@H](CCCCN)NC(=O)[C@H](CC(=O)O)NC(=O)[C@H](CC(=O)O)NC(=O)[C@H](CC(N)=O)NC(=O)[C@H](CC(=O)O)NC(=O)[C@@H]2CSSC[C@@H]3NC(=O)[C@H]([C@@H](C)O)NC(=O)[C@H](C(C)C)NC(=O)[C@@H]4CCCN4C(=O)[C@H](CSSC[C@H](NC(=O)[C@H](CC(=O)O)NC(=O)[C@H](Cc4ccccc4)NC(=O)[C@H](CC(N)=O)NC(=O)[C@H](CCCCN)NC(=O)[C@H](CCC(=O)O)NC(=O)[C@H](CC(=O)O)NC(=O)[C@H](C)NC(=O)[C@@H](NC(=O)[C@H](Cc4c[nH]cn4)NC(=O)[C@@H](N)CCC(=O)O)CSSC[C@@H](C(N)=O)NC(=O)[C@H](Cc4ccccc4)NC(=O)CNC3=O)C(=O)N[C@@H](CCCNC(=N)N)C(=O)N[C@@H](CCCNC(=N)N)C(=O)N[C@@H](CO)C(=O)N[C@@H](CC(C)C)C(=O)N[C@@H](CCCNC(=N)N)C(=O)N[C@@H](CC(N)=O)C(=O)NCC(=O)N[C@@H](CC(=O)O)C(=O)N2)NC(=O)[C@H](Cc2ccc(O)cc2)NC(=O)[C@H](Cc2ccc(O)cc2)NC(=O)CNC1=O`, the IC50 was 0.829 µM and 0.83 µM (Potassium voltage-gated channel subfamily A member 3 (KCNA3, Homo sapiens, UniProt P22001); ion current, inhibitor, two-electrode voltage clamp; pH 7.45, oocytes).
`C[C@]12CC[C@H](O)CC1=CC[C@@H]1[C@@H]2CC[C@]2(C)C(=O)CC[C@@H]12` gave an IC50 of 9 µM (Glucose-6-phosphate 1-dehydrogenase (G6PD, Homo sapiens, UniProt P11413); enzyme activity, inhibitor).
`CCCCCc1cc(O)c2c(c1)OC(C)(C)C1CCC(CO)=CC21` (stereo not drawn) has an IC50 of 7.1 ± 3.3 µM (CYP2B6; enzyme activity, inhibitor; microsomes from HEK293 cells; pH 7.4, together with: bupropion).
`CCCCCc1cc(O)c2c(c1)OC(C)(C)c1cc(O)c(C)cc1-2` has an IC50 of 90 µM (rat intestinal α-glucosidase; enzyme activity, inhibitor).
`O=C1C2=C(Nc3[nH]c(=O)[nH]c(=O)c3C23C(=O)Nc2ccccc23)c2ccccc21` (stereo not drawn) has an IC50 of 1.94 µM (Urease; enzyme activity, inhibitor, absorbance).
The IC50 of `C=C(C)C1C2OC(=O)C1C1(O)CC3OC34C(=O)OC2C14C` (stereo not drawn) is reported as 4.47 µM (GABA-A receptor; alpha-1/beta-2/gamma-2 (Homo sapiens, UniProt P14867+P18507+P47870); ion current, two-electrode voltage clamp; oocytes).
For `O=C(NC1CCN(c2ncnc3[nH]cnc23)CC1)c1cccc(NS(=O)(=O)c2ccc(C(F)(F)F)cc2)c1`, the IC50 was 9.11 µM (Replicase polyprotein 1ab, nsp14 (rep, Human coronavirus 229E, UniProt P0C6X1)).
`CCCn1c(NCc2ccc(N3N=C(c4ccccc4)CC3c3ccccc3)cc2)nc2ccccc21` (stereo not drawn) gave an IC50 of 8.5 µM (Genome polyprotein protease; enzyme activity, inhibitor).

A few entries again:
The IC50 of `CN1C(=O)C2(C3=C(Nc4[nH]c(=O)[nH]c(=O)c42)c2ccccc2C3=O)c2ccccc21` (stereo not drawn) is reported as 4.35 µM (Urease; enzyme activity, inhibitor, absorbance).
For `CC(C)C[C@H](N)C(=O)NCC(=O)N[C@H](C(=O)N[C@@H](C)C(=O)N1CCC[C@H]1C(=O)N[C@H](C(=O)N[C@@H](CCCCN)C(=O)N[C@@H](C)C(=O)N[C@@H](CCCCN)C(=O)N[C@@H](CCCNC(=N)N)C(=O)N[C@@H](CCCNC(=N)N)C(=O)N[C@H](C(=O)N[C@H](C(=O)N[C@@H](CCC(N)=O)C(=O)N[C@@H](CCCNC(=N)N)C(=O)N[C@@H](CCC(=O)O)C(=O)N[C@@H](CCCCN)C(=O)N[C@@H](CCCNC(=N)N)C(N)=O)C(C)C)C(C)C)[C@@H](C)O)C(C)C`, the IC50 was > 100 µM (Furin (FURIN, Homo sapiens, UniProt P09958); enzyme activity, inhibitor, HPLC; pH 7).
The IC50 of `CCCCCCCC/C=C\CCCCc1cc(=O)c2ccccc2n1C` is reported as 36 µM (UDP-N-acetylmuramoyl-L-alanyl-D-glutamate--2,6-diaminopimelate ligase (murE, Mycobacterium tuberculosis, UniProt P9WJL3); enzyme activity, inhibitor, absorbance).
